Assay results gathered from unrelated publications.
Compare with care: the assays were run in different laboratories. ± gives the spread as reported.

With `CC1SC(N/N=C2\c3ccccc3-c3nc4cc(F)ccc4nc32)=NC1=O` (centres unmarked) the blood glucose was 318 ± 27.7 mg/dL (mice with STZ-induced diabetes; oral, 25 mg/kg, 288 h, day 12).
Under blood pressure, `O=C(OCc1cccc(O)c1O)c1ccc(O)c(CO)c1` is recorded as “no effect” (p47phox knockout mice; intraperitoneal, 2.5 mg/kg/day, 14 days, with: angiotensin II 0.8 mg/kg/day).
For `CC/C=C\C/C=C\C/C=C\C/C=C\C/C=C\CCCCOC(CC)C(=O)O` (centres unmarked), “blood glucose change” read -50% (ob/ob mice; in diet, 135 mg/kg/day, 4 weeks; relative to: control).
`CCNC(=S)NNS(=O)(=O)c1ccc2c(c1)n(C)c(=O)c(=O)n2C` has a blood glucose of 126 ± 7.15 mg/dL (IPGTT; HFD/STZ diabetic male albino mice; 10 mg/kg, 2 h).
`CCOC(=O)[C@H](C)NP(=O)(N[C@@H](C)C(=O)OCC)c1ccc(-c2nc(N)sc2CC(C)C)o1`: “blood glucose decrease” about 40% (wild-type mice, fasted 16 h, blood; intraperitoneal, 75 mg/kg, 2 to 3 h).
With `Cn1c(=O)c(=O)n(C)c2cc(S(=O)(=O)NNC(=S)Nc3ccccc3)ccc21` the blood glucose was 85.3 ± 5.3 mg/dL (IPGTT; HFD/STZ diabetic male albino mice; 10 mg/kg, 6 h).
For `NC(=S)N/N=C1\c2ccccc2-c2nc3cc(F)ccc3nc21`, the blood glucose was 258 ± 16.6 mg/dL (mice with STZ-induced diabetes; oral, 25 mg/kg, 144 h, day 6).
`CC[C@H](C)[C@H](NC(=O)[C@H](CC(N)=O)NC(=O)[C@H](CC(N)=O)NC(=O)[C@H](CCCNC(=N)N)NC(=O)[C@H](CC(N)=O)NC(=O)[C@H](CCCNC(=N)N)NC(=O)[C@H](CCCCN)NC(=O)[C@@H](NC(=O)[C@H](CC(N)=O)NC(=O)[C@H](CCSC)NC(=O)[C@H](CC(C)C)NC(=O)[C@H](Cc1c[nH]c2ccccc12)NC(=O)[C@@H]1CSCc2ccc(cc2)-c2ccc(cc2)CSC[C@H](NC(=O)[C@H](CCC(=O)O)NC(=O)[C@H](CC(=O)O)NC(=O)[C@H](CC(C)C)NC(=O)[C@H](Cc2ccc(O)cc2)NC(=O)[C@H](CCCCN)NC(=O)[C@H](CO)NC(=O)[C@H](Cc2ccc(O)cc2)NC(=O)[C@H](CC(=O)O)NC(=O)[C@H](CO)NC(=O)[C@@H](NC(=O)[C@H](Cc2ccccc2)NC(=O)[C@@H](NC(=O)CNC(=O)[C@H](CCC(N)=O)NC(=O)[C@@H](CO)NC(=O)[C@@H](N)Cc2c[nH]cn2)[C@@H](C)O)[C@@H](C)O)C(=O)N[C@@H](C)C(=O)N[C@@H](C)C(=O)N[C@@H](CCCCN)C(=O)N[C@@H](CCC(=O)O)C(=O)N[C@@H](Cc2ccccc2)C(=O)N[C@@H]([C@@H](C)CC)C(=O)N1)[C@@H](C)O)C(=O)N[C@@H](C)C(N)=O` gave a blood glucose of 40% (mice; subcutaneous, 10 µg/mouse, 4 h before glucose, oral glucose tolerance test).

For quick reference, copied from above:
For `NC(=S)N/N=C1\c2ccccc2-c2nc3cc(F)ccc3nc21`, the blood glucose was 258 ± 16.6 mg/dL (mice with STZ-induced diabetes; oral, 25 mg/kg, 144 h, day 6).
